Assay results from different studies.
A part holds a random share of what one study measured. Values joined by “and” are separate records of one study, mostly repeats; a detail may differ.

Series 1
SMILES: Cc1cc2c(C(N)=O)c(N)n(-c3c(C)ccc(O)c3C)c2nc1C
Method: KINOMEscan
Concentration: 1000 nM
Reference: control
Endpoint: remaining binding
MKNK2: 100%
CSNK1A1: 95%
FRK: 0.95%
CSNK2A2: 100%

Series 2
Compound: COc1cc(C(=O)N2CCC(N3CCN(C)CC3)CC2)ccc1Nc1ncc2c(n1)N(C)c1ccccc1C(=O)N2C
Endpoint: inhibition
human PBMC; probe labeling, inhibitor, KiNativ profiling, item: DTGHIYAMkILR; cell lysate; concentration not given, LYS1 site, together with: ATP acyl-phosphate probe: 0.3%
AKT1 (mouse); probe labelling, KiNativ, item: GTFGkVILVK peptide, ATP loop; brain tissue lysate (mouse); 0.1 µM, together with: ADP acyl-phosphate probe: -6%
YANK1/YANK2/YANK3 (mouse); probe labelling, inhibitor, KiNativ ActivX ADP probe; mouse brain lysate; 0.1 µM, Lys1 site peptide: -4.5%
PIP5K1C mouse; KiNativ profiling; mouse brain lysate; 1 µM, ADP probe, ATP site: -2.5%
PIK3CD human; KiNativ profiling; human PBMC; 0.1 µM, ATP site, together with: ADP acyl phosphate probe: -5.2%
human PBMC; probe labeling, inhibitor, KiNativ profiling, item: DMkAANVLITR; cell lysate; concentration not given, LYS2 site, together with: ATP acyl-phosphate probe: 13.5%
SGK3 (mouse); probe labelling, KiNativ, item: FYAVkVLQK peptide, LYS1 site; brain tissue lysate (mouse); 0.1 µM, together with: ADP acyl-phosphate probe: -2.5%

Series 3
Cell line: mouse MPNST tumor cells
Method: high-content immunofluorescence imaging
Item: nuclear SOX9
Concentration: 10 µM
Time: 12 h
Notes: mean of 2 replicates
Reference: DMSO control
Direction: higher = more nuclear SOX9
Endpoint: nuclear SOX9 intensity
CCCCN(CC)c1nc(C)nc2c1c(C)c(C)n2-c1c(C)cc(C)cc1C: 108 % of DMSO
COc1cc2c(cc1O)CC[C@@H]1[C@@H]2CC[C@]2(C)[C@@H](O)CC[C@@H]12: 172 % of DMSO
C[C@]12CC[C@@H]3c4ccc(OS(=O)(=O)O)cc4CC[C@H]3[C@@H]1CCC2=O: 94.3 % of DMSO
NC(C(=O)O)c1cc(O)ccc1Cl (stereo not shown): 90.7 % of DMSO

Further values, each from its own experiment
Cn1cncc1[C@@](O)(COc1ccc(C#N)cc1-c1ccc(OC(F)(F)F)cc1)c1ccc(C#N)cc1 — membrane-permeable cells (HEK293T; high-content imaging; 10 µM, 0 h): 0.74% and 0.62%

For quick reference, copied from above (series 3):
COc1cc2c(cc1O)CC[C@@H]1[C@@H]2CC[C@]2(C)[C@@H](O)CC[C@@H]12: 172 % of DMSO
C[C@]12CC[C@@H]3c4ccc(OS(=O)(=O)O)cc4CC[C@H]3[C@@H]1CCC2=O: 94.3 % of DMSO
NC(C(=O)O)c1cc(O)ccc1Cl (stereo not shown): 90.7 % of DMSO
